Measured values from different studies.
Lines come from different studies, so protocols differ. Several values in a cell are separate wells, animals, samples, runs or records. ± marks the error that the study gave.
Chain of UniProt Q9Y2J8 (whole entry, looked up): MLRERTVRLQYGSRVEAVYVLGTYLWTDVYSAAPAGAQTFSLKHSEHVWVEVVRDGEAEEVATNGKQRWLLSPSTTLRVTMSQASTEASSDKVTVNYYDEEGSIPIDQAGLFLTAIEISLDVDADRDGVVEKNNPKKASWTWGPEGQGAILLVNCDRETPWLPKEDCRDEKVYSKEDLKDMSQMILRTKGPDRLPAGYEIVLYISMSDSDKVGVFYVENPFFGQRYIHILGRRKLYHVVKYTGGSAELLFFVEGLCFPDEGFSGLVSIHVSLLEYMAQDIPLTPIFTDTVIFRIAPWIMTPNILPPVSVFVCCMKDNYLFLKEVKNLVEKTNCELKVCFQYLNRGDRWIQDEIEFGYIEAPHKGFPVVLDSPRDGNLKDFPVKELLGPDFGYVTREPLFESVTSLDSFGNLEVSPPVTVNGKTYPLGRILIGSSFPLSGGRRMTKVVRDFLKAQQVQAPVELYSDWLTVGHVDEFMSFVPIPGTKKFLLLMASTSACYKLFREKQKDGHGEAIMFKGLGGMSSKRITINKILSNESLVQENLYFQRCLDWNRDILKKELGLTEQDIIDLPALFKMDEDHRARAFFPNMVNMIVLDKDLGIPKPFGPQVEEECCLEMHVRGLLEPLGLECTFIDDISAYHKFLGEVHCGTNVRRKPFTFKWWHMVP
Chain of UniProt O00750 (whole entry, looked up): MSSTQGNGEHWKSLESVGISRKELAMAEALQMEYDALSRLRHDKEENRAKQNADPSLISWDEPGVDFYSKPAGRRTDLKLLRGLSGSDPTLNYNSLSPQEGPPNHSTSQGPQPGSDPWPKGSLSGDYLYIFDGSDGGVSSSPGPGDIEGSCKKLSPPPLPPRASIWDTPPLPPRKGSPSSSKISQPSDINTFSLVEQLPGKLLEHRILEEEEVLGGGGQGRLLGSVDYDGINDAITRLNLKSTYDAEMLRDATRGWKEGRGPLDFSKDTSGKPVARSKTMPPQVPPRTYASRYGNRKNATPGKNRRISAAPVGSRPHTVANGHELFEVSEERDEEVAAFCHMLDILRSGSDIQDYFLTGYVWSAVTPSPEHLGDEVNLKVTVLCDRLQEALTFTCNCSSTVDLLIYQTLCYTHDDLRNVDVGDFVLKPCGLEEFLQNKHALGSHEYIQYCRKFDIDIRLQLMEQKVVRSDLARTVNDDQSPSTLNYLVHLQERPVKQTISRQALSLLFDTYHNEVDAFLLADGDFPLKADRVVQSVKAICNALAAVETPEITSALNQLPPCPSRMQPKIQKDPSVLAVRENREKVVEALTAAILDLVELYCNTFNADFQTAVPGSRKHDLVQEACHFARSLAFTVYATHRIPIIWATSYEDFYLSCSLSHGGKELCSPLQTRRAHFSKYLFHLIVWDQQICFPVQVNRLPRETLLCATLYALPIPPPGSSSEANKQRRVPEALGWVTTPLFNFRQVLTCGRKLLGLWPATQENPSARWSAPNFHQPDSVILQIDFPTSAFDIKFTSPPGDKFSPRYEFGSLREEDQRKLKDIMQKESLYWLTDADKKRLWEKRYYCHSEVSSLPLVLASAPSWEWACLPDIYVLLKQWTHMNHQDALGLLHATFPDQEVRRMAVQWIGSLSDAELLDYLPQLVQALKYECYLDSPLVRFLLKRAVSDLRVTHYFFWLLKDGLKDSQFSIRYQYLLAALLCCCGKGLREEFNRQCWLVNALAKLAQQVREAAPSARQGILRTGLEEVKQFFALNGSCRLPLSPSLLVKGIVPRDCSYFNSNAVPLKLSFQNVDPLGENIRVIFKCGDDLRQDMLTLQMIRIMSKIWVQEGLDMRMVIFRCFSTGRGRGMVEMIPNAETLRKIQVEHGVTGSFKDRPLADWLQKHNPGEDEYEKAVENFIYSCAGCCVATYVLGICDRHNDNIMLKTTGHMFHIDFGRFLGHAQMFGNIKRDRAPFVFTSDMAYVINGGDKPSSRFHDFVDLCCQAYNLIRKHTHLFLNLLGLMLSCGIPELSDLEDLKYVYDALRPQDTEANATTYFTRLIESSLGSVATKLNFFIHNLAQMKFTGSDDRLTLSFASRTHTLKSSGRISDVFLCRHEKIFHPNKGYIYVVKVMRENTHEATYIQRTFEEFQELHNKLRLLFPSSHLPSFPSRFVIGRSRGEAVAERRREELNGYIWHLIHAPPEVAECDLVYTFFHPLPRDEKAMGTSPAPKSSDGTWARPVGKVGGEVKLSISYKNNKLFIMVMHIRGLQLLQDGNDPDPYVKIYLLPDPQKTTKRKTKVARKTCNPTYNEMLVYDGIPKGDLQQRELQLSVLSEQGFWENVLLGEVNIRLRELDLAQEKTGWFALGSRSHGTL
Chain of UniProt Q8IU85 (whole entry, looked up): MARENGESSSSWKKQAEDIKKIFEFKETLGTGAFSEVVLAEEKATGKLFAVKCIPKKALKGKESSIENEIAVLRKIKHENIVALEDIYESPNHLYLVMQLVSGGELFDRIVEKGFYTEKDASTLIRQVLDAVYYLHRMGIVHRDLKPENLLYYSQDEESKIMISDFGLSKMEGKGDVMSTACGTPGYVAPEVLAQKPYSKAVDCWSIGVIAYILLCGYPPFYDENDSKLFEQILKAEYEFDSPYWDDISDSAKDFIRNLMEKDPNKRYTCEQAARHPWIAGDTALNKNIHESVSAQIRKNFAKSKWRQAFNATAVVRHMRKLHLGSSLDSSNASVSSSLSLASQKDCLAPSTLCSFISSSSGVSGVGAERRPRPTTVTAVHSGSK
Chain of UniProt P09619 (whole entry, looked up): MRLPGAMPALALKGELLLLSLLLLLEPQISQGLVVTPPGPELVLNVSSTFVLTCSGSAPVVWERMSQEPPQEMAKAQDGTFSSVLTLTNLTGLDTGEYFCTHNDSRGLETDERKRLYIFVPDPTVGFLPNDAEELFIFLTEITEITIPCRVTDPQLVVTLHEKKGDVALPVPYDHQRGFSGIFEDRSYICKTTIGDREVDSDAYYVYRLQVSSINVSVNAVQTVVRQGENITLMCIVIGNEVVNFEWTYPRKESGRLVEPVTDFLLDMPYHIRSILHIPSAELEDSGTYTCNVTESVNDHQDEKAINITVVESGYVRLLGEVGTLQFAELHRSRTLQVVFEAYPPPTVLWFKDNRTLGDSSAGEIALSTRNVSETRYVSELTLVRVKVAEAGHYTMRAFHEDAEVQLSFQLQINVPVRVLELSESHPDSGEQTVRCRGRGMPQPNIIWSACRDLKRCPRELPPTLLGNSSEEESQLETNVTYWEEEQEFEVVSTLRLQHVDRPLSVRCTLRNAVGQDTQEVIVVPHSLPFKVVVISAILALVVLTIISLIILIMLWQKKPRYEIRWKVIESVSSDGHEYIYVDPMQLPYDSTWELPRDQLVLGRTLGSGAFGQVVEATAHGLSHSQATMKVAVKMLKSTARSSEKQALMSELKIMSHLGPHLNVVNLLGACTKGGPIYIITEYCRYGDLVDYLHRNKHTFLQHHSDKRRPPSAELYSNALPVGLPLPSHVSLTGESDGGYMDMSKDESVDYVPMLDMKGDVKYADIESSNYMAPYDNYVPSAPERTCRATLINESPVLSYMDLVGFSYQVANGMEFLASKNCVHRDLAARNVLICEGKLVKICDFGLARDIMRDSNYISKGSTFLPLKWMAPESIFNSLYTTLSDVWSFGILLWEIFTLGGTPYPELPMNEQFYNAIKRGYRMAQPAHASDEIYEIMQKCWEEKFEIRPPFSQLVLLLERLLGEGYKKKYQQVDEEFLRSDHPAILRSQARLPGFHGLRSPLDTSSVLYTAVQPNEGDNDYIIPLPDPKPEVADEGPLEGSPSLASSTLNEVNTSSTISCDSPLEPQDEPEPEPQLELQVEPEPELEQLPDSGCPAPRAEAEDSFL
Chain of UniProt P34972 (whole entry, unmodified, looked up): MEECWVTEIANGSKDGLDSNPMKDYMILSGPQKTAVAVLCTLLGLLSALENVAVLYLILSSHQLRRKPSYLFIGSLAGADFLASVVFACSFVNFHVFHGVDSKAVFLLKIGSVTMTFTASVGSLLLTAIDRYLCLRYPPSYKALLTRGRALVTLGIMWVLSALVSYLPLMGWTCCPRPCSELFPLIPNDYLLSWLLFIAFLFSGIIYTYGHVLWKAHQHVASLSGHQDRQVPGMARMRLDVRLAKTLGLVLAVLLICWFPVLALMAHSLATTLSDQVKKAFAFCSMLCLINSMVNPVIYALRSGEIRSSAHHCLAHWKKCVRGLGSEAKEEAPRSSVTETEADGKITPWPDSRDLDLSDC
Chain of UniProt P16675 (whole entry, looked up): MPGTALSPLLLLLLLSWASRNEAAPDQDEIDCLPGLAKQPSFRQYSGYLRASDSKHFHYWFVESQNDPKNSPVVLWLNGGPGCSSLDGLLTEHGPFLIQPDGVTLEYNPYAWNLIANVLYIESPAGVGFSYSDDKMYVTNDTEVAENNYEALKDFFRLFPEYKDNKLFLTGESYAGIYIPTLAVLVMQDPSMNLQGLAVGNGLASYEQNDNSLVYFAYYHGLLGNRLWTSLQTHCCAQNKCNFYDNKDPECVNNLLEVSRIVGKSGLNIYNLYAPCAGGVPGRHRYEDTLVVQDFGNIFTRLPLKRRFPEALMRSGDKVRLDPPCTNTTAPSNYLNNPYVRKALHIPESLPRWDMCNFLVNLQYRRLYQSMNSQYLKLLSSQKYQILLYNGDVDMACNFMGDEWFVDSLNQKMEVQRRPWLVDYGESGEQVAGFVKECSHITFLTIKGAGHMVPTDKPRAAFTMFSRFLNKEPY

CS(C)(=O)=Nc1ccc(-c2ccc(-c3nc4cc(O[C@@H]5CO[C@H]6[C@@H]5OC[C@H]6O)[nH]c4cc3F)cc2)cc1  inhibition (Angiotensin-converting enzyme (ACE, Homo sapiens, UniProt P12821); enzyme activity, inhibitor; 10 µM): 88%
CCCn1ncc(CN2CCCC(C(=O)c3cccc(OC)c3)C2)c1C (stereo not drawn)  relative translation (Trypanosoma cruzi; reporter mRNA translation, inhibitor, refers to: capped polyadenylated Renilla luciferase mRNA; cell-free extract; concentration not given; baseline: control RNA): 113%
COc1ccccc1-c1n[nH]c2nc(N[C@H]3CC[C@H](NS(=O)(=O)CC(C)C)CC3)ncc12  relative abundance (bead binding, competition bead pull-down, refers to: LMJF.36.3530; Leishmania donovani extract; 10 µM; baseline: vehicle): 1.06
CN(C)CC#CCC(O)(c1ccccc1)C1CCCC1.Cl (stereo not drawn)  translation activity (Trypanosoma cruzi; reporter mRNA translation, inhibitor, refers to: capped polyadenylated Renilla luciferase mRNA; cell-free extract; concentration not given; baseline: positive over negative control): 97.9% and 100% and 102% and 106%
Cc1ccc2c(C(C[N+](=O)[O-])c3cccs3)c(-c3ccccc3)[nH]c2c1 (stereo not drawn)  Emax (Cannabinoid receptor 1 (CNR1, Homo sapiens, UniProt P21554, L165A); Gαi1-γ2 dissociation, BRET): 87.3 ± 4.47%
N[C@H](C(=O)N1CCCC1)C1CCN(c2nccc3c(-c4ncc(Cl)cc4Cl)cccc23)CC1  kcat (Protein-arginine deiminase type-2 (PADI2, Homo sapiens, UniProt Q9Y2J8); enzyme activity; 24 µM, high-affinity site, added: Ca2+ 1.5 mM): 0.261 s⁻¹ and 0.182 s⁻¹
N=C(N)NCCC[C@@H]1NC(=O)[C@H](CCCCNC(=O)CCC(NC(=S)Nc2ccc(CC3CN(CC(=O)O)CCN(CC(=O)O)CCN(CC(=O)O)CCN3CC(=O)O)cc2)C(=O)NCCCC[C@@H]2NC(=O)[C@@H](Cc3ccc(O)cc3)NC(=O)[C@H](CC(=O)O)NC(=O)CNC(=O)[C@H](CCCNC(=N)N)NC2=O)NC(=O)[C@@H](Cc2ccc(O)cc2)NC(=O)[C@H](CC(=O)O)NC(=O)CNC1=O (stereo partly drawn) [scandium-44 labelled]  tissue uptake (ex vivo γ-counting; female athymic nude mice, U-87 MG xenograft, tumor; intravenous, 4 h, added: cRGD 50 mg/kg blocking): 0.128 ± 0.02 %ID/g
CC(C)[C@H]1NC(=O)C[C@H]2/C=C/CCSSC[C@@H](NC1=O)C(=O)N[C@H](Cc1cccc3ccccc13)C(=O)NCC(=O)O2  inhibition (Epidermal growth factor receptor (EGFR, Homo sapiens, UniProt P00533, del746-750); enzyme activity, inhibitor; 10 µM): -2.8%
CC(C)CC(O)(CC(C)C)c1cn(C(=O)N2CCCC2)nn1  activity ratio (Lysosomal protective protein (Ctsa, Mus musculus, UniProt P16675); enzyme activity, inhibitor, competitive ABPP-SILAC, refers to: Ctsa; mouse T-cells; concentration not given, 4 h, treated in situ; baseline: DMSO): 1.32
COc1ccccc1-c1n[nH]c2nc(NC3CCN(C(=O)Cc4ccc(F)cc4F)CC3)ncc12  relative abundance (bead binding, competition bead pull-down, refers to: LINJ.06.0030; Leishmania donovani axenic amastigote extract; 10 µM; baseline: vehicle): 0.65
O=C1NC(=O)c2c1c1cc(F)c[n+]3c1c1c2c2cc(O)ccc2[n]1[Ru-4]312([N]=C=S)[S+]3CC[S+]1CC[S+]2CC3 (stereo not drawn)  remaining activity (Tyrosine-protein kinase ABL1 (ABL1, Homo sapiens, UniProt P00519, Y253F); enzyme activity; 100 nM, human enzyme, added: 10 µM ATP; baseline: untreated): 118%
O=C1NC2(CC2)COc2ncc(F)cc2[C@H]2COCCN2c2ccn3ncc1c3n2  prothrombin time (Sprague-Dawley rat, male, plasma; oral, 10 mg/kg/day, end of recovery, 4-week repeated-dose toxicity): 8.9 ± 0.2 s
CN(C)[C@H]1C[C@@]23CC[C@@]4(O2)C(=CC[C@]2(C)[C@@H](c5ccc6ccncc6c5)CC[C@H]24)C=C3[C@@H](O)[C@@H]1O  inhibition (Calcium/calmodulin-dependent protein kinase type 1D (CAMK1D, Homo sapiens, UniProt Q8IU85); ATP probe labelling, inhibitor, KiNativ profiling; 1 µM): 1%
CC[C@H](C)[C@@H]([C@@H](CC(=O)N1CCC[C@H]1[C@H](OC)[C@@H](C)C(=O)N[C@H](C)[C@@H](O)c1ccccc1)OC)N(C)C(=O)[C@@H](NC(=O)[C@H](C(C)C)N(C)C(=O)OCc1ccc(NC(=O)[C@H](CCCNC(N)=O)NC(=O)[C@@H](NC(=O)CCCCCN2C(=O)CC(SC[C@H](NC(=O)[C@H](CC(=O)O)NC(=O)[C@H](Cc3ccc(O)cc3)NC(=O)[C@H](Cc3c[nH]c4ccccc34)NC(=O)[C@@H](N)CCCNC(=N)N)C(=O)O)C2=O)C(C)C)cc1)C(C)C (stereo partly drawn)  concentration (C57BL/6 mouse, healthy, heart; intraperitoneal, 2.5 mg/kg, 6 h): not detected
CC[C@H](C)[C@H](NC(=O)[C@H](CO)NC(=O)[C@H](Cc1ccc(O)cc1)NC(=O)[C@H](Cc1ccc(O)cc1)NC(=O)[C@H](CC(N)=O)NC(=O)CNC(=O)[C@H](CO)NC(=O)[C@H](Cc1ccc(O)cc1)NC(=O)[C@H](CO)NC(=O)[C@H](CO)NC(=O)[C@H](CC(N)=O)NC(=O)COCCOCCNC(=O)CN1CCN(CC(=O)O)CCN(CC(=O)O)CCN(CC(=O)O)CC1)C(=O)N[C@@H](CC(C)C)C(N)=O [copper-64 labelled]  maximum pancreas uptake (dynamic PET; tamoxifen-induced PDAC mouse model, pancreas; 0.1 min, CLDN4-expressing tumours): 1.26 %IA/cc
O=C(NC1CCN(c2ncnc3[nH]cnc23)CC1)c1cccc(NS(=O)(=O)c2ccc(C(F)(F)F)cc2)c1  inhibition (Replicase polyprotein 1ab, nsp14 (rep, Human coronavirus 229E, UniProt P0C6X1); enzyme activity; 50 µM): 73.5%
C#CCN(Cc1ccc2nc(C)[nH]c(=O)c2c1)c1ccc(C(=O)N[C@@H](CCC(=O)OC)C(=O)OC)cc1  MIC90 (Mycobacterium tuberculosis; bacterial growth, inhibitor; H37Rv pptT conditional knockdown; PptT depleted, ATc withheld): > 100 µM
CCOc1ccc(CNCCc2ccc3c(c2)OCO3)cc1  translation activity (Trypanosoma cruzi; reporter mRNA translation, inhibitor, refers to: Renilla luciferase mRNA; cell-free extract; concentration not given, test 1; baseline: positive over negative control): 101%
Nc1ccc(/C=C/C(=O)N2CCc3c(oc4c(-c5ccc(F)cc5)cc(-c5ccc(C(=O)N6CCC(F)(F)CC6)cn5)cc34)C2)cn1  remaining binding (Phosphatidylinositol 4-phosphate 3-kinase C2 domain-containing subunit beta (PIK3C2B, Homo sapiens, UniProt O00750); binding, competition with immobilised ligand; 1 µM): 100%
CC(C)(C)C(=O)OCOP(=O)(OCOC(=O)C(C)(C)C)C1CCCN(O)C1=O (stereo not drawn)  GI50 (PC-3): 2.02 µM
Cc1sc2c(c1C)C(c1ccc(Cl)cc1)=N[C@@H](CC(=O)OC(C)(C)C)c1nnc(C)n1-2  TΔS (Bromodomain testis-specific protein, BD1 (BRDT, Homo sapiens, UniProt Q58F21); isothermal titration calorimetry; 15 °C, reverse titration): 0.56 kcal/mol
Cc1cc(Oc2nc(N3CC[C@@H](c4ccncc4)C3)ncc2F)[nH]n1  IC50 (786-O; cell proliferation): 55 µM
CCOC(=O)[C@@H]1Cc2c(cc([N+](=O)[O-])cc2[N+](=O)[O-])[C@H](O)[C@]12C(=O)Nc1ccc(Br)cc12  remaining binding (Platelet-derived growth factor receptor beta (PDGFRB, Homo sapiens, UniProt P09619); binding, competition with immobilised ligand; 0.1 µM): 81%
CCCCCn1cc(C(=O)c2ccc3ccccc3c2)c2ccccc21  bias factor (ΔΔlog(Emax/EC50)) (Cannabinoid receptor 2 (CNR2, Homo sapiens, UniProt P34972); agonist, BRET; baseline: Gαi1 over β-arrestin 2, reference agonist): -0.71

Repeated from above:
CN(C)CC#CCC(O)(c1ccccc1)C1CCCC1.Cl (stereo not drawn)  translation activity (Trypanosoma cruzi; reporter mRNA translation, inhibitor, refers to: capped polyadenylated Renilla luciferase mRNA; cell-free extract; concentration not given; baseline: positive over negative control): 97.9% and 100% and 102% and 106%
Cc1ccc2c(C(C[N+](=O)[O-])c3cccs3)c(-c3ccccc3)[nH]c2c1 (stereo not drawn)  Emax (Cannabinoid receptor 1 (CNR1, Homo sapiens, UniProt P21554, L165A); Gαi1-γ2 dissociation, BRET): 87.3 ± 4.47%
N[C@H](C(=O)N1CCCC1)C1CCN(c2nccc3c(-c4ncc(Cl)cc4Cl)cccc23)CC1  kcat (Protein-arginine deiminase type-2 (PADI2, Homo sapiens, UniProt Q9Y2J8); enzyme activity; 24 µM, high-affinity site, added: Ca2+ 1.5 mM): 0.261 s⁻¹ and 0.182 s⁻¹
N=C(N)NCCC[C@@H]1NC(=O)[C@H](CCCCNC(=O)CCC(NC(=S)Nc2ccc(CC3CN(CC(=O)O)CCN(CC(=O)O)CCN(CC(=O)O)CCN3CC(=O)O)cc2)C(=O)NCCCC[C@@H]2NC(=O)[C@@H](Cc3ccc(O)cc3)NC(=O)[C@H](CC(=O)O)NC(=O)CNC(=O)[C@H](CCCNC(=N)N)NC2=O)NC(=O)[C@@H](Cc2ccc(O)cc2)NC(=O)[C@H](CC(=O)O)NC(=O)CNC1=O (stereo partly drawn) [scandium-44 labelled]  tissue uptake (ex vivo γ-counting; female athymic nude mice, U-87 MG xenograft, tumor; intravenous, 4 h, added: cRGD 50 mg/kg blocking): 0.128 ± 0.02 %ID/g
